Measured values pooled from the literature.
“And” joins repeats or separate records; there may be more than shown. Numbers after ± are the reported error.
Sequence of UniProt Q9Y6R4 (whole entry, looked up): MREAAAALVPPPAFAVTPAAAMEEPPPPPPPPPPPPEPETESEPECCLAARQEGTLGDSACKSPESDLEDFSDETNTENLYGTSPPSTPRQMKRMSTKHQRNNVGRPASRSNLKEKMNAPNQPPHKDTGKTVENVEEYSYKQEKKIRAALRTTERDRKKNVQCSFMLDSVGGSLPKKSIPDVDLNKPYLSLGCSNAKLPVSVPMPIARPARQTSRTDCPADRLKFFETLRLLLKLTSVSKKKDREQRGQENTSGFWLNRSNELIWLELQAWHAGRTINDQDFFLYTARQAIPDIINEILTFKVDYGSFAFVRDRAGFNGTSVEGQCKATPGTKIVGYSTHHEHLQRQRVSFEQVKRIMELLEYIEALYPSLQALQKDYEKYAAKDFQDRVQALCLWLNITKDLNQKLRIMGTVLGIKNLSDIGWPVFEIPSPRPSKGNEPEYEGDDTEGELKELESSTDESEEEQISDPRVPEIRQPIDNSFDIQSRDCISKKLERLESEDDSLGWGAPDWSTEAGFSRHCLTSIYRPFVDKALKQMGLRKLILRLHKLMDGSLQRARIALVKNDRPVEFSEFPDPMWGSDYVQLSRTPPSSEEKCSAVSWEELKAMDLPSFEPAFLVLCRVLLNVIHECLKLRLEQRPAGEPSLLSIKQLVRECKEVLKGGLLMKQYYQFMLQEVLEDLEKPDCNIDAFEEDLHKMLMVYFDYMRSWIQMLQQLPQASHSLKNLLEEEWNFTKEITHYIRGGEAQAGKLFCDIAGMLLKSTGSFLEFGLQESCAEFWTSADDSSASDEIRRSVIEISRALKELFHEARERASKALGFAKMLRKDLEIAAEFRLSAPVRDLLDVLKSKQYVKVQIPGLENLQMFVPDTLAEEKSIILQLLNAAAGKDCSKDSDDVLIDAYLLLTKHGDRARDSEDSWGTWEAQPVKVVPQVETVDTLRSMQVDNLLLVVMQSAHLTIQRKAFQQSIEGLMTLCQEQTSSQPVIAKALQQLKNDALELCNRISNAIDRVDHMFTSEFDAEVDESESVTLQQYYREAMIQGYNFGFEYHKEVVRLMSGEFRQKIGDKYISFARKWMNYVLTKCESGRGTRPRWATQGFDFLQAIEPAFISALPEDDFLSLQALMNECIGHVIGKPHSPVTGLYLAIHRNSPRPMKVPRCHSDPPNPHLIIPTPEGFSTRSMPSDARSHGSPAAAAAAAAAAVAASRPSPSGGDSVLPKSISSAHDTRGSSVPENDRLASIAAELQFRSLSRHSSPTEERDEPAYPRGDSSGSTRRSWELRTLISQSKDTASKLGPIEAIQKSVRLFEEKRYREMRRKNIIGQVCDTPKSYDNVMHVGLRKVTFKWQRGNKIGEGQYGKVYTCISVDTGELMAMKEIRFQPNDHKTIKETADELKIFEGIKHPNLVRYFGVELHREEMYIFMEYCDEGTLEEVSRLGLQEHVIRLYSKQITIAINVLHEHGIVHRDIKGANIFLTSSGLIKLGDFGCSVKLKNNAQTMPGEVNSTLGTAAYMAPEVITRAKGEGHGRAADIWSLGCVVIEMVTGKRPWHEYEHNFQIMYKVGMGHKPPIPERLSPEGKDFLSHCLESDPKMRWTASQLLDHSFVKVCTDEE
Sequence of UniProt P20813 (whole entry, looked up): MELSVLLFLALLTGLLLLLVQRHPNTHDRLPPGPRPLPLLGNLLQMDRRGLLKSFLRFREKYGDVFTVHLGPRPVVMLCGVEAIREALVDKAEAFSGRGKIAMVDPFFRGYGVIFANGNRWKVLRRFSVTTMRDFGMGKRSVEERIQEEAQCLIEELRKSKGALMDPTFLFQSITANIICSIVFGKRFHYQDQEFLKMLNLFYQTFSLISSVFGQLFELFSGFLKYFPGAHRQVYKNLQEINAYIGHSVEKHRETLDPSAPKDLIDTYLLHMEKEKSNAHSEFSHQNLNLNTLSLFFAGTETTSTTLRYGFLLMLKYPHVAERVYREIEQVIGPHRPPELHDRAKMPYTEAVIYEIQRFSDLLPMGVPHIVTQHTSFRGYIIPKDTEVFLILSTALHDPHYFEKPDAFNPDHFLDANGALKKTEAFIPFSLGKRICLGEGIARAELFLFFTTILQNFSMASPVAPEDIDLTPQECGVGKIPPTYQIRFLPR
Sequence of UniProt Q9Y6M4 (whole entry, looked up): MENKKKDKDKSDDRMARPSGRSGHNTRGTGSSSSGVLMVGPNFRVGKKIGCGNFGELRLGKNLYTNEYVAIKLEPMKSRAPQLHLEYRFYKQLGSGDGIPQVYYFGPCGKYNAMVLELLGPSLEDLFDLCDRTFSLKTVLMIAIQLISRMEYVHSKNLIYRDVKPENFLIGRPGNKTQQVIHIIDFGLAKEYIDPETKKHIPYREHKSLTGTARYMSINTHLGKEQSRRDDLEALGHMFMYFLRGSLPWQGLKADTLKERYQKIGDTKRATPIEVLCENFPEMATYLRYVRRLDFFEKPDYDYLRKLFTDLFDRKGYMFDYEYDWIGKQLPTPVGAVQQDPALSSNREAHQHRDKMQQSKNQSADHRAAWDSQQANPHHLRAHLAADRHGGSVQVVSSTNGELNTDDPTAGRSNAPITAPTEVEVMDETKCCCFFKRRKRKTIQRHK

SMILES	target or system	test	system	conditions	how to read	quantity	value
Cc1cc(-c2ccc3ccccc3c2)nnc1NCCN1CCN(C)CC1	Cytochrome P450 2B6 (CYP2B6, Homo sapiens, UniProt P20813)	substrate	recombinant enzyme	100 nM, 1 h	–	remaining compound	90%
CC(C)[C@H](NC(=O)[C@@H](NC(=O)[C@H](CCCNC(=N)N)NC(=O)[C@H](CCCNC(=N)N)NC(=O)[C@H](CCCNC(=N)N)NC(=O)[C@H](CCC(N)=O)NC(=O)[C@H](CCCNC(=N)N)NC(=O)[C@H](CCCNC(=N)N)NC(=O)[C@H](CCCCN)NC(=O)[C@H](CCCCN)NC(=O)[C@H](CCCNC(=N)N)NC(=O)CN)[C@@H](C)O)C(=O)N[C@H](C(=O)N[C@@H](CO)C(=O)N1CCC[C@H]1C(=O)O)[C@@H](C)O	–	–	ICR mice, male, lung	intranasal, 5 mg/kg daily, 4 weeks	–	organ weight	0.348 ± 0.069 g
COc1cnc2cccc(N3CCc4c(cc(Cn5ccnc5)cc4-c4cn(C)nc4C(F)(F)F)C3=O)c2c1	–	–	BALB/c nude mice, MV4-11 xenograft	intraperitoneal, 75 mg/kg, day 21	–	body weight	22.5 g and 21.5 g and 25.2 g and 22.1 g and 23.6 g
CCCCCCCCCCCCCC(=O)N[C@H](CCN)C(=O)N[C@@H]1C(=O)N[C@@H](CCN)C(=O)N[C@@H](CC(C)C)C(=O)N[C@@H](CCN)C(=O)N[C@H](Cc2ccccc2)C(=O)N[C@@H](CC(C)C)C(=O)N[C@@H](CCN)C(=O)N[C@H](CCN)C(=O)N[C@@H](C(C)C)C(=O)N[C@@H](CC(=O)O)C(=O)O[C@@H]1C	–	–	rat, plasma	subcutaneous, 10 mg/kg	–	AUC(0-inf)	115000 ng·h/mL
CCCCCCCCCCCCCCCC(=O)N[C@@H](CCC(=O)NCCOCCOCCC(=O)NCCOCCOCCC(=O)NCCCC[C@H](NC(=O)[C@H](CC(=O)O)NC(=O)[C@H](CC(C)C)NC(=O)[C@H](Cc1ccc(O)cc1)NC(=O)[C@H](CCCCN)NC(=O)[C@H](CO)NC(=O)[C@H](Cc1ccc(O)cc1)NC(=O)[C@H](CC(=O)O)NC(=O)[C@H](CO)NC(=O)[C@@H](NC(=O)[C@H](Cc1ccccc1)NC(=O)[C@@H](NC(=O)CNC(=O)[C@H](CCC(N)=O)NC(=O)[C@@H](CO)NC(=O)[C@@H](N)Cc1c[nH]cn1)[C@@H](C)O)[C@@H](C)O)C(=O)N[C@@H](CCCNC(=N)N)C(=O)N[C@@H](CCCNC(=N)N)C(=O)N[C@@H](C)C(=O)N[C@@H](CCC(N)=O)C(=O)N[C@@H](CC(=O)O)C(=O)N[C@@H](Cc1ccccc1)C(=O)N[C@H](C(=O)N[C@@H](CCC(N)=O)C(=O)N[C@@H](Cc1c[nH]c2ccccc12)C(=O)N[C@@H](CC(C)C)C(=O)N[C@@H](CC(C)C)C(=O)N[C@@H](CC(N)=O)C(=O)N[C@H](C(=O)NCC(=O)NCC(=O)N1CCC[C@H]1C(=O)N[C@@H](CO)C(=O)N[C@@H](CO)C(=O)NCC(=O)N[C@@H](C)C(=O)N1CCC[C@H]1C(=O)N1CCC[C@H]1C(=O)N1CCC[C@H]1C(=O)N[C@@H](CO)C(N)=O)[C@@H](C)O)C(C)C)C(=O)O	–	–	rhesus monkey, plasma	subcutaneous, 20 µg/kg, multiple doses	–	Cmax	14.8 ng/mL
O=C1NC(=O)c2c1c1cc(F)c[n+]3c1c1c2c2cc(O)ccc2[n]1[Ru-4]312([N]=C=S)[S+]3CC[S+]1CC[S+]2CC3 (stereo not drawn)	AMPK (rat)	kinase activity, inhibitor	–	100 nM, together with: 10 µM ATP	–	remaining activity	49%
O=C1NC2(CC2)COc2ncc(F)cc2[C@H]2COCCN2c2ccn3ncc1c3n2	–	–	Sprague-Dawley rat, male, spleen	oral, 20 mg/kg/day, 4 weeks, end of treatment	–	organ-to-brain weight ratio	79.7 ± 17.4%
CC(C)(C)C(=O)OCOP(=O)(OCOC(=O)C(C)(C)C)C1CCCN(O)C1=O (stereo not drawn)	SR	–	–	–	–	log TGI	-5.1 log M
CC(C)C[C@H](NC(=O)[C@H](Cc1ccc(O)cc1)NC(=O)[C@H](Cc1c[nH]cn1)NC(=O)[C@H](CC(=O)O)NC(=O)[C@@H](NC(=O)[C@H](C)NC(=O)[C@H](CC(C)C)NC(=O)CNC(=O)CNC(=O)[C@@H](NC(=O)[C@@H](NC(=O)[C@H](CCCCN)NC(=O)CNC(=O)[C@@H](NC(=O)[C@H](CCCCN)NC(=O)[C@H](CCCCN)NC(=O)[C@H](C)NC(=O)[C@H](CCCNC(=N)N)NC(=O)[C@H](CC(N)=O)NC(=O)[C@H](Cc1ccccc1)NC(=O)[C@H](Cc1c[nH]c2ccccc12)NC(=O)[C@H](CCCCN)NC(=O)[C@H](CCCCN)NC(=O)[C@H](Cc1c[nH]c2ccccc12)NC(=O)CN)C(C)C)[C@@H](C)O)C(C)C)C(C)C)C(N)=O	–	–	zebrafish embryos 4 hpf, E3 medium	24 h	–	chronic toxic concentration	5 µM
COc1ccccc1-c1n[nH]c2nc(N[C@H]3CC[C@H](NS(=O)(=O)CC(C)C)CC3)ncc12	–	bead binding, competition bead pull-down, measured: LMJF.25.1180	Leishmania donovani extract	10 µM	reference: vehicle	relative abundance	0.72
CN(C)[C@H]1C[C@@]23CC[C@@]4(O2)C(=CC[C@]2(C)[C@@H](c5ccc6ccncc6c5)CC[C@H]24)C=C3[C@@H](O)[C@@H]1O	Mitogen-activated protein kinase kinase kinase 4 (MAP3K4, Homo sapiens, UniProt Q9Y6R4)	ATP probe labelling, inhibitor, KiNativ profiling	–	1 µM	–	inhibition	6.5%
CS(C)(=O)=Nc1ccc(-c2ccc(-c3nc4cc(O[C@@H]5CO[C@H]6[C@@H]5OC[C@H]6O)[nH]c4cc3F)cc2)cc1	Casein kinase I isoform gamma-3 (CSNK1G3, Homo sapiens, UniProt Q9Y6M4)	enzyme activity, inhibitor	–	10 µM	–	inhibition	-8%
N#[11C]c1ccc(-c2csc(NN=C3CCCC3)n2)cc1	–	dynamic PET/CT	C57BL/6 mouse, kidneys	intravenous, dose not given, 60 min	–	radioactivity uptake	0.6 SUV
CCN(CC)CCOc1ccc(-c2nnn(Cc3ccc(OC)cc3)c2N)cc1	–	–	rat hepatocytes	concentration not given, time not given	–	remaining compound	37%
CC[C@H](C)[C@H](NC(=O)[C@H](CCCCN)NC(=O)CNC(=O)[C@H](CC(C)C)NC(=O)[C@H](Cc1ccccc1)NC(=O)[C@H](CCCCN)NC(=O)[C@H](CO)NC(=O)[C@H](Cc1ccccc1)NC(=O)[C@H](Cc1c[nH]c2ccccc12)NC(=O)[C@H](CCC(N)=O)NC(=O)[C@@H](NC(=O)[C@H](Cc1ccccc1)NC(=O)CCCCCNC(=O)CN1CCN(CC(=O)O)CCN(CC(=O)O)CCN(CC(=O)O)CC1)C(C)C)C(=O)N[C@@H](CCC(=O)O)C(=O)N1CCC[C@H]1C(=O)N[C@@H](CC(=O)O)C(=O)N[C@H](C(=O)N[C@@H](CO)C(=O)N[C@@H](CCC(N)=O)C(=O)N[C@H](C(=O)N[C@@H](CCC(N)=O)C(=O)N[C@@H](CC(=O)O)C(=O)N1CCC[C@H]1C(=O)N[C@@H](CC(N)=O)C(=O)N[C@@H](CC(=O)O)C(=O)N[C@@H](CCC(N)=O)C(=O)N[C@@H](Cc1ccc(O)cc1)C(=O)N[C@@H](CCC(=O)O)C(=O)N1CCC[C@H]1C(=O)N[C@@H](Cc1ccccc1)C(=O)O)C(C)C)C(C)C [copper-64 labelled]	–	–	GZMB-/- mice, CT26 tumour-bearing, liver	2 h, checkpoint inhibitor-treated	–	tissue uptake	8.35 ± 1.6 %ID/g
NC1CCN(C(=O)Oc2ccc(C3CCCC4(C3)OOC3(O4)C4CC5CC(C4)CC3C5)cc2)CC1 (racemic)	–	–	male mouse, plasma	oral, 50 mg/kg, single dose	–	AUC(0-t)	16400 ng·h/mL
Cc1nc2cccc(OCC(C)(C)C(=O)NC(C)C)c2c(N)c1C(=O)[O-].[Na+]	Salmonella typhimurium	–	TA1537	0.32 mg per plate, with S9, preincubation	–	revertant colonies per plate	18 ± 2
CSCC[C@H](N)C(=O)N[C@@H](C)C(=O)N[C@@H](Cc1c[nH]c2ccccc12)C(=O)N[C@@H](Cc1c[nH]cn1)C(=O)N[C@@H](CC(=O)O)C(=O)N[C@@H](CC(=O)O)C(=O)N[C@@H](CCC(=O)O)C(=O)N[C@@H](CCC(=O)O)C(=O)N[C@@H](Cc1ccccc1)C(=O)N[C@@H](C)C(=O)N[C@@H](CCCNC(=N)N)C(=O)N[C@@H](CCCNC(=N)N)C(=O)N[C@@H](CCCNC(=N)N)C(=O)N[C@@H](CCCNC(=N)N)C(=O)NCCCCCC(=O)NCCCCC(NC(=O)CCCCCNC(=O)[C@H](CCCNC(=N)N)NC(=O)[C@H](CCCNC(=N)N)NC(=O)[C@H](CCCNC(=N)N)NC(=O)[C@H](CCCNC(=N)N)NC(=O)[C@H](C)NC(=O)[C@H](Cc1ccccc1)NC(=O)[C@H](CCC(=O)O)NC(=O)[C@H](CCC(=O)O)NC(=O)[C@H](CC(=O)O)NC(=O)[C@H](CC(=O)O)NC(=O)[C@H](Cc1c[nH]cn1)NC(=O)[C@H](Cc1c[nH]c2ccccc12)NC(=O)[C@H](C)NC(=O)[C@@H](N)CCSC)C(=O)NCCCCC(NC(=O)C(CCCCNC(=O)CCCCCNC(=O)[C@H](CCCNC(=N)N)NC(=O)[C@H](CCCNC(=N)N)NC(=O)[C@H](CCCNC(=N)N)NC(=O)[C@H](CCCNC(=N)N)NC(=O)[C@H](C)NC(=O)[C@H](Cc1ccccc1)NC(=O)[C@H](CCC(=O)O)NC(=O)[C@H](CCC(=O)O)NC(=O)[C@H](CC(=O)O)NC(=O)[C@H](CC(=O)O)NC(=O)[C@H](Cc1c[nH]cn1)NC(=O)[C@H](Cc1c[nH]c2ccccc12)NC(=O)[C@H](C)NC(=O)[C@@H](N)CCSC)NC(=O)CCCCCNC(=O)[C@H](CCCNC(=N)N)NC(=O)[C@H](CCCNC(=N)N)NC(=O)[C@H](CCCNC(=N)N)NC(=O)[C@H](CCCNC(=N)N)NC(=O)[C@H](C)NC(=O)[C@H](Cc1ccccc1)NC(=O)[C@H](CCC(=O)O)NC(=O)[C@H](CCC(=O)O)NC(=O)[C@H](CC(=O)O)NC(=O)[C@H](CC(=O)O)NC(=O)[C@H](Cc1c[nH]cn1)NC(=O)[C@H](Cc1c[nH]c2ccccc12)NC(=O)[C@H](C)NC(=O)[C@@H](N)CCSC)C(N)=O (stereo partly drawn)	–	–	C57BL/6 mouse female, heart	dose not given, 3 h	reference: total	tissue distribution	1.03% and 0.73% and 0.84%
Cn1nc(NS(C)(=O)=O)c2c(Cl)ccc(-n3c([C@H](Cc4cc(F)cc(F)c4)NC(=O)Cn4nc(C(F)F)c5c4C(F)(F)[C@@H]4C[C@H]54)nc4nc(OCCC(F)(F)F)ccc4c3=O)c21	–	–	human, plasma	oral, 25 mg single dose, powder in bottle, geometric mean	–	AUC(0-inf)	2760 ng·h/mL
CCCCC(CC)COC(=O)CC(C(=O)OCC(CC)CCCC)S(=O)(=O)O.CCCSc1ccc2[nH]c(NC(=O)OC)nc2c1 (stereo not drawn)	–	visual inspection	Capryol 90	–	–	solubility	~30 mg/mL
C/C(=N\OCCCN1CCCCC1)c1ccc(C(F)(F)F)cc1	–	–	mouse, plasma	oral, 150 mg/kg once daily, day 1	–	Cmax	2740 ± 339 ng/mL
CC(C)C[C@H](NC(=O)[C@H](CCCCN)NC(=O)[C@H](CCC(N)=O)NC(=O)[C@@H](N)Cc1c[nH]cn1)C(=O)N[C@H](C(=O)N[C@@H](CSSC[C@H](NC(=O)[C@@H](NC(=O)[C@H](CC(C)C)NC(=O)[C@H](CCCCN)NC(=O)[C@H](CCC(N)=O)NC(=O)[C@@H](N)Cc1c[nH]cn1)C(C)C)C(=O)N[C@@H](Cc1ccccc1)C(=O)N[C@@H](C)C(=O)N[C@@H](CCC(=O)O)C(=O)N[C@@H](CC(=O)O)C(=O)N[C@H](C(=O)O)C(C)C)C(=O)N[C@@H](Cc1ccccc1)C(=O)N[C@@H](C)C(=O)N[C@@H](CCC(=O)O)C(=O)N[C@@H](CC(=O)O)C(=O)N[C@H](C(=O)O)C(C)C)C(C)C	–	OD600	20 mM Tris-HCl	pH 7.4	–	turbidity onset concentration	1 mM
COc1ccccc1-c1n[nH]c2nc(NC3CCN(C(=O)Cc4ccc(F)cc4F)CC3)ncc12	–	bead binding, competition bead pull-down, measured: LINJ.34.0030	Leishmania donovani extract	10 µM	reference: vehicle	relative abundance	0.82
[18F]c1ncccc1-c1ccc2c(n1)[nH]c1ccncc12	–	PET imaging	Sprague-Dawley rat, both sexes	intravenous bolus	–	brain initial uptake	2.5 to 2.8 SUV

Some of these lines once more:
SMILES	target or system	test	system	conditions	how to read	quantity	value
COc1cnc2cccc(N3CCc4c(cc(Cn5ccnc5)cc4-c4cn(C)nc4C(F)(F)F)C3=O)c2c1	–	–	BALB/c nude mice, MV4-11 xenograft	intraperitoneal, 75 mg/kg, day 21	–	body weight	22.5 g and 21.5 g and 25.2 g and 22.1 g and 23.6 g
CCCCCCCCCCCCCC(=O)N[C@H](CCN)C(=O)N[C@@H]1C(=O)N[C@@H](CCN)C(=O)N[C@@H](CC(C)C)C(=O)N[C@@H](CCN)C(=O)N[C@H](Cc2ccccc2)C(=O)N[C@@H](CC(C)C)C(=O)N[C@@H](CCN)C(=O)N[C@H](CCN)C(=O)N[C@@H](C(C)C)C(=O)N[C@@H](CC(=O)O)C(=O)O[C@@H]1C	–	–	rat, plasma	subcutaneous, 10 mg/kg	–	AUC(0-inf)	115000 ng·h/mL
